Measured values from different studies.
Every numbered part comes from another study and shows a few of its results, in no order. Positions count from the first letter of the parent shown.

Series 1 — method: DHFR PCA, deep sequencing; matrix: yeast; added: (+)-ABA 200 µM; baseline: wild-type fitted maximum; reading: higher = stronger binding
Target: ABI1, truncated, D143A, DHFR fusion (Arabidopsis thaliana)
Notes: methotrexate growth selection, single substitutions
Parent: PYL1, truncated, DHFR fusion (Arabidopsis thaliana); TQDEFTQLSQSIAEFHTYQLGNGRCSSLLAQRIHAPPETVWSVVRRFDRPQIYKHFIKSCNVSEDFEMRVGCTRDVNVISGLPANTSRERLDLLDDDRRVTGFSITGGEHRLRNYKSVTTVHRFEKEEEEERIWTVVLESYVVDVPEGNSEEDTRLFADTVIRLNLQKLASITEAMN; partner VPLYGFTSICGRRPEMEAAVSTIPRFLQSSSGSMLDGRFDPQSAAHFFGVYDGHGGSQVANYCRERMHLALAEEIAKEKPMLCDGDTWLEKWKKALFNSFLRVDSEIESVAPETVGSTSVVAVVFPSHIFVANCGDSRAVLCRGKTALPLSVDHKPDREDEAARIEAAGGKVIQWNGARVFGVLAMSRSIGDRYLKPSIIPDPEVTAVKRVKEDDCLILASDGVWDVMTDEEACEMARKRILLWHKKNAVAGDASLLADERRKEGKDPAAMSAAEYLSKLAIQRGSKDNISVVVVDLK
Substitution	relative binding score [%]
C72A	107
E151G	93.8
R90W	0.694
D144Y	32.4
L8I	89.9

Series 2 — method: EMSA with sequencing; molecule type: double-stranded DNA, one strand shown; matrix: in vitro; tested at: 10 and 20 nM; baseline: negative control set to 0; reading: higher = stronger binding
Target: Hepatocyte nuclear factor 3-alpha (Foxa1, Mus musculus, UniProt P35582, residues 1-468, full length assumed)
Notes: whole designed probe, mean of two concentrations, ends assumed
Residues (chain): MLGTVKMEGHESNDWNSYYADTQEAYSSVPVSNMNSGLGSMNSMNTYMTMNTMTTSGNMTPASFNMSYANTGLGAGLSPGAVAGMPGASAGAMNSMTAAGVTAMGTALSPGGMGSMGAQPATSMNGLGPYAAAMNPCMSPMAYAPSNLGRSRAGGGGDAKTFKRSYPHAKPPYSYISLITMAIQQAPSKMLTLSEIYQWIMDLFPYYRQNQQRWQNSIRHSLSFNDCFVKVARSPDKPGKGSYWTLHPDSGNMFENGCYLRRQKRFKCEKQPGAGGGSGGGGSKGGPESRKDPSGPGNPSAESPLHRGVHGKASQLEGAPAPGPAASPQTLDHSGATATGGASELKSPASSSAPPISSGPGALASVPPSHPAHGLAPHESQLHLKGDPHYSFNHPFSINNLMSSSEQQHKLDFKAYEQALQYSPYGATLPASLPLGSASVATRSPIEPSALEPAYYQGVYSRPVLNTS
Sequence	normalised bound fraction [ratio]
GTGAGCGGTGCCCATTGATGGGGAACTAACCTGAGAGTATTTTTTGGTCGTACAGGAAGTGTATCACATCTTTGCTTGCAGGTGATTATTTTTCCTAATTTAATTAGGCCCATAAAATGTAATCTAGCAACTGGGGCTCAGTCATTATTAATTTAGAATATAGACTCAAGAGATGCTGGAACTATAAAGGCAGAAGAATGCATTCTTGACATAGGTAAATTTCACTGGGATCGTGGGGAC	-0.0126
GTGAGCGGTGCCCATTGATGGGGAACATCTTCCCCCTCTTCCTTGCCCCACCAGCTCACCTTCCCGGGTTATTTGCAGATAGGAAATTAATATAAGCCGGCATTCGTTAACCCTCTTCTGGCGCAAACTGCACATTGGTCTGGATGAATCATGGTCCTTTGGCGACGCCAGGCTCCGGGAGAGCAAAGCACCGTGTCAGGGCCATGATCCGGGGTGGCCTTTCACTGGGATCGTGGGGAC	0.0728
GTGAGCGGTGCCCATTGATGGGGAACGATATTTGCAATCAATCTACTAGTTAACTATAAATGGAACAATGTACTTTCTTCCTTTCTCCAAACTGGAGAAGAGACTTTTAGAAGAATCTGAGTAAACAGGAAAACTTAGTCTTATCTTACAAGTCAAGGAAGCAGTTATTAAGAACATATGGATAAGCATGAAATCAAATCTTATTCTCTGCAAAGGAGCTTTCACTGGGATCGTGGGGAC	0.144
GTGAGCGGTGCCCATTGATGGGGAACCAGTTTTATTTCACAGCTTAATGTAAATAAAAATTCCGTGTTTTGACTCATGTCAGATAAGAAACAGAGCAATTTTTTTCTGTTGATTTTCTAAGTAAACATATATTTTCTGTCTTAAAAGCTGTCAAGATGAACTTAACATCAAATTGCTTAGATATTGTATTTCCTAACATCAATCCAGACTAAAATTTTTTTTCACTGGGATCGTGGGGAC	0.489
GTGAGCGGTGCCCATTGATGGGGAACCATGTTCCAAGAGAAGAGAAGGTAAAGCAGTGTCTATGTTACAAACAAAAAGGAACTGAGCTACAAGACTGAAAAACTGAAAGAAACAGCAATGTAAACAAGCCGTTTACTTGACATCATAAATGTATCTTTGGCTTTCTACTCCTCTCCCTCAAAAAAAAGGAAAGAAAACGTATCAAAATAGGTTAGGCAGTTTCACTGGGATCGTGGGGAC	0.427
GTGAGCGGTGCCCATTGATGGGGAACTAAAGTTTTGATTTTTAAAATGATTCCAATGCTTCTGACATAAAAAAATCTGTTGCTGAAATACTTGAATACTATAATATATTAAATGATCTAAGTAAACATAGGACTACAGAAAAAAGAATATGAGAAAAGGATCAAAAGGAAGTAACTGATAAAAGTCAAGGAGAAATCAAAATTTAAATAAAAGAAATGGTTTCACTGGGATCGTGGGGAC	0.481
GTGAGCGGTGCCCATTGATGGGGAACAAGCAATACATGTTGTCAAAATACAGTGGCAACGGGAACCGAATAGATGTGAAGCAATGAGTGAGCCACCAATTACTAAAATATGTGGTCCTGAGTAAACAAGAGCTTAACGGAGAGATGAGAGGCGCCTGTGAAGTTGGAAAAGGTGGGCATAAGAATGTGTGCTAACTAGACCTGAAGTCTAGGCCGGCTGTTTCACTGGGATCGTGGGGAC	0.45

Series 3 — target: Sox-I, HMG box (Salpingoeca helianthica); method: Spec-seq; molecule type: double-stranded DNA, one strand shown; matrix: in vitro; tested at: not given; notes: whole probe, mean of replicates; baseline: not given; reading: lower = stronger binding; all sequences stand within: GAGTCGTCTCGTCAGCAC … CCGTAGAGCACTCAGGTC
Residues (chain): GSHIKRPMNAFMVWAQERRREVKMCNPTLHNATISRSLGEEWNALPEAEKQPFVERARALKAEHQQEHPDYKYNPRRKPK
Sequence	relative binding energy
CATCCAG	1.09 ln ratio
CATTTAG	0.793 ln ratio
GGCCGTT	0.987 ln ratio
ACTGGTT	-0.208 ln ratio
CATTACT	0.447 ln ratio
CACGGTT	0.724 ln ratio
CATTCGT	0.938 ln ratio

Mixed results
Substance	target	test	system	setting	how to read	measurement	value
PhoQ, residues 284 288 289 292 302 303 TLSLKA	PhoP, residues 12 14 15 18 19 DLLYY (Escherichia coli, UniProt P23836)	Sort-seq, item: YFP reporter	E. coli	PhoQ-PhoP variant library, added: 10 µM Mg2+	baseline: high Mg2+ state, higher = stronger signaling	fold induction	0.555

A few entries again (series 3):
Sequence	relative binding energy
CATTTAG	0.793 ln ratio
CATCCAG	1.09 ln ratio
